Results pooled from the literature.
Each line is one published result; not all experiments were run side by side. Values joined by “and” are separate records of one study, mostly repeats; a detail may differ. ± gives the spread as reported. Converted amounts (≈) assume the structure as drawn.

Compound | tested on | test | test system | setting | how to read | quantity | result
Cn1c2ccc([N+](=O)[O-])cc2c(=O)n1Cc1ccccc1 | – | resazurin | peritoneal macrophages, BALB/c mice | 48 h, 10% FBS | – | CC50 | 4 ± 0.9 µM
NCC(=O)N1CCC[C@H]1C(=O)N1C[C@H](O)C[C@H]1C(=O)O | – | potentiometric titration | – | 25 °C, MA complex, with: Fe(III) | – | log beta | 16.7
CC[C@H](C)[C@@H]1NC(=O)[C@H](Cc2ccccc2)NC(=O)[C@@H](NC(=O)[C@H](CCCNC(=N)N)NC(=O)[C@H](Cc2ccccc2)NC(=O)[C@H](Cc2ccccc2)NC(=O)[C@H](CCCCN)NC(=O)[C@H](CO)NC(=O)[C@H](CC(C)C)NC(=O)[C@H](CCCNC(=N)N)NC(=O)[C@H](CCSC)NC(=O)[C@H](C)N)CCCNC(=O)NCCC[C@@H](C(=O)N[C@@H](CCCNC(=N)N)C(=O)N[C@@H](CCCCN)C(=O)N[C@@H](CCCCN)C(=O)O)NC(=O)[C@H](CC(C)C)NC1=O | – | circular dichroism | 20% TFE in PBS | 200 µM, pH 7.4, 25 °C | – | helicity | 14.6%
O=C([O-])CN1CCN(CC(=O)[O-])CCN(CC(=O)NCC2CCC(C(=O)NC(Cc3ccc4ccccc4c3)C(=O)NCCCCC(NC(=O)NC(CCC(=O)O)C(=O)O)C(=O)O)CC2)CCN(CC(=O)[O-])CC1.[44Sc+3] (stereo not shown) | – | transchelation stability | – | 4 h, 37 °C, with: EDTA 10 mM | – | intact complex | 97.3 ± 0.1%
O=C(O)C1OC(OC2C(COS(=O)(=O)O)OC(OC3C(C(=O)O)OC(OC4C(COS(=O)(=O)O)OC(OC5C(C(=O)O)OC(OC6C(COS(=O)(=O)O)OC(OC7C(C(=O)O)OC(OC8C(COS(=O)(=O)O)OC(OC9C(C(=O)O)OC(OC%10C(COS(=O)(=O)O)OC(OC%11C(C(=O)O)OC(Oc%12ccc([N+](=O)[O-])cc%12)C(O)C%11O)C(NS(=O)(=O)O)C%10O)C(OS(=O)(=O)O)C9O)C(NS(=O)(=O)O)C8O)C(OS(=O)(=O)O)C7O)C(NS(=O)(=O)O)C6O)C(OS(=O)(=O)O)C5O)C(NS(=O)(=O)O)C4O)C(OS(=O)(=O)O)C3O)C(NS(=O)(=O)O)C2OS(=O)(=O)O)C(O)C(O)C1OC1OC(COS(=O)(=O)O)C(O)C(O)C1NS(=O)(=O)O (stereo not shown) | – | – | rats | intravenous, 400, 1200 and 3600 µg/kg/day for 7 days | – | toxicity | not toxic
COc1cc(NC(C)=O)c2c(c1O)-c1c(OC)c(OC)cc3c1C(C2)N(C)CC3 (stereo not shown) | – | – | rat brain homogenate | 100 µg/mL, 4 h, room temperature, short-term storage | – | remaining compound | 93.4 ± 2.7%
CC(=O)N[C@@H](CC(N)=O)C(=O)NCC(=O)N[C@@H](CCCNC(=N)N)C(=O)N[C@@H](C)C(N)=O | – | 1H NMR | sodium phosphate buffer 50 mM | pH 7.4, 46 °C | – | half-life of Asn form | 13 h
COc1ccc(/C=C/c2ccc(-c3ccc(C)cn3)nc2)cc1 | – | – | acetonitrile | zinc(II) complex, with: quinine bisulfate reference | – | fluorescence quantum yield | 0.46
Cn1c(=O)oc2ccc(-c3ccc(CC(C#N)NC(=O)C4CNCCCO4)c(F)c3)cc21 (stereo not shown) | – | measured: alanine aminotransferase increased | human | 15 mg single dose, fasted | – | subjects with TRAE | 0%
NC(=O)c1cccnc1.O.O=c1[nH]cc(F)c(=O)[nH]1.O=c1[nH]cc(F)c(=O)[nH]1.O=c1[nH]cc(F)c(=O)[nH]1 | – | – | Sprague-Dawley rat | oral, 0.06 mmol/kg | – | alpha half-life | 11.8 ± 3 min
C[C@@H](O)[C@H](NC(=O)[C@@H](NC(=O)[C@@H](N)CCCCN)[C@@H](C)O)C(=O)N[C@@H](CCCCN)C(=O)N[C@@H](CO)C(=O)O | – | – | hairless mouse skin | 50 µg/cm^2, 24 h | – | amount retained in epidermis | not detected
[2H]C([2H])([2H])NC(=O)c1ccc(N2C(=S)N(c3ccc(C#N)c(C(F)(F)F)c3)C(=O)C2(C)C)cc1F | – | – | human, plasma | oral, 160 mg, single dose, fasted | – | CL/F | 215 mL/h
CCSC(=S)N1CCN(C(=O)/C=C/c2coc3ccccc3c2=O)CC1 | tomato spotted wilt virus | virus inactivation, half-leaf method | Nicotiana glutinosa | tested 31.25 to 500 µg/mL | – | EC50 | 355 ± 11.5 µg/mL (≈ 913 µM)
COc1ccc(S(=O)(=O)N2CCc3ccccc3C2)cc1N1CCN(C(=O)c2ccc(F)cc2C(F)(F)F)CC1 | – | – | rat, plasma | intravenous, 10 mg/kg, 1 h, single dose | – | concentration | 449 ng/mL
COc1cc(C)c(Cc2ccc(O)cc2)cc1[C@@H]1S[C@H](CO)[C@@H](O)[C@H](O)[C@H]1O | – | – | Japanese T2DM patients, plasma | 2.5 mg luseogliflozin, day 7, once daily | – | Cmax | 6.64 ± 0.776 ng/mL
CCN(CC)CCSC(=S)N1CCN(C(=O)/C=C/c2coc3cc(OC)ccc3c2=O)CC1 | tomato spotted wilt virus | viral infection, half-leaf method | Nicotiana glutinosa | 500 µg/mL | – | curative effect | 56.5 ± 3.9%
N=C(N)NCCC[C@@H]1NC(=O)[C@H](Cc2c[nH]c3ccccc23)NC(=O)[C@@H](CC2CCCCC2)NC(=O)[C@@H]2CCCN2C(=O)[C@@H](NC(=O)CCc2ccccc2)CCCNC1=O | – | – | C57BL/6J mouse, plasma | oral, 1 mg/kg single dose | reference: intravenous AUC | oral bioavailability | 23% and 22.6% and ~20%
CC(C)c1cnc(-c2cc(Cl)ccc2F)cc1Nc1ccncc1C(=O)NC(CO)CO | – | measured: hypotension | human patients | oral, dose not given, grade 4 | – | patients with related SAE | 0%
CN1CCC[C@]1(C)/C=C/S(=O)(=O)NC(=O)Nc1c2c(cc3c1CCC3)CCC2 | – | – | human, urine | oral, dose not given, time not given, single dose | – | cumulative urinary recovery | 50 to 85%
C=CC(=O)Nc1cccc(-c2cnc3[nH]cc(C(=O)NC(C)(C)C)c3n2)c1 | – | – | mouse, tumour-bearing | ip, 25 and 50 mg/kg, 14 days | – | liver, kidney function and blood counts | no effect
CCCC[C@H](NC(=O)CNC(=O)CNC(=O)CN1CCN(CC(=O)O)CCN(CC(=O)O)CC1)C(=O)N[C@H]1CC(=O)NCCCC[C@@H](C(N)=O)NC(=O)[C@H](Cc2c[nH]c3ccccc23)NC(=O)[C@H](CCCNC(=N)N)NC(=O)[C@@H](Cc2ccccc2)NC(=O)[C@H](Cc2c[nH]cn2)NC1=O [gallium-67 labelled] | – | – | female C57 mice, B16/F1 melanoma | intravenous, 0.037 MBq, 2 h | reference: tumour over lung | tumour to tissue ratio | 46.4
CC(=O)[CH](C(C)=O)[Pt-2]1([S+](C)C)[O]C(C)=CC(C)=[O+]1 (stereo not shown) | – | – | rat, blood | intravenous, 10 mg/kg, single dose | – | AST | 86.4 ± 6.5 U/L
CC[C@H](C)[C@H](NC(=O)[C@H](CCCCN)NC(=O)[C@H](CS)NC(=O)[C@H](CC(N)=O)NC(=O)[C@H](C)NC(=O)[C@H](CCCNC(=N)N)NC(=O)[C@H](CCCNC(=N)N)NC(=O)[C@H](CC(N)=O)NC(=O)[C@H](CCCNC(=N)N)NC(=O)[C@H](CCCNC(=N)N)NC(=O)[C@H](C)NC(=O)[C@H](CS)NC(=O)[C@H](CO)NC(=O)[C@@H](NC(=O)[C@@H](NC(=O)[C@H](CS)NC(=O)[C@H](CCCCN)NC(=O)[C@@H](N)CCCNC(=N)N)C(C)C)[C@@H](C)CC)C(=O)N[C@@H](CC(C)C)C(=O)N[C@@H](CS)C(=O)N[C@@H](CC(N)=O)C(=O)O | – | LC/MS | PBS | 0.1 mg/mL | reference: LC peak area | two-disulfide form | 52%
CCN(CC)c1ccc2c(-c3ccccc3C(=O)OCCOCCOCC[18F])c3ccc(=[N+](CC)CC)cc-3oc2c1 | – | – | rat | dose not given, 60 min post injection | reference: heart over blood | heart to blood ratio | 5.4
CC1=C(/C=C/C(=O)N2CCN(C(N)=O)CC2)C(C)(C)CCC1 | – | – | female mice, retina | oral, 40 mg/kg | – | Cmax | 9.08 nmol/g
COc1c2c(cc3oc(COC4OC(CO)C(O)C(O)C4O)cc(=O)c13)OC(C(C)(C)O)C2 (stereo not shown) | – | – | methanol | 2 mg/mL, 6 h, room temperature | – | stock solution stability | 93.9 % accuracy
N=C(N)NCCC[C@H](NC(=O)[C@H](CCCNC(=N)N)NC(=O)[C@H](CCCNC(=N)N)NC(=O)[C@H](CCCNC(=N)N)NC(=O)[C@H](CCCNC(=N)N)NC(=O)[C@H](CCCNC(=N)N)NC(=O)[C@H](CCCNC(=N)N)NC(=O)[C@H](CCCNC(=N)N)NC(=O)[C@H](CCCNC(=N)N)NC(=O)[C@H](CCCNC(=N)N)NC(=O)[C@H](CCCNC(=N)N)NC(=O)[C@H](CCCNC(=N)N)NC(=O)[C@H](CCCNC(=N)N)NC(=O)[C@H](CCCNC(=N)N)NC(=O)[C@H](CCCNC(=N)N)NC(=O)[C@H](CCCNC(=N)N)NC(=O)[C@H](CCCNC(=N)N)NC(=O)[C@H](CCCNC(=N)N)NC(=O)[C@H](CCCNC(=N)N)NC(=O)[C@H](CCCNC(=N)N)NC(=O)c1ccc2c(c1)C(=O)OC21c2ccc(O)cc2Oc2cc(O)ccc21)C(=O)O | – | – | bovine cartilage explants | 7 days, with: 10 x PBS | – | desorbed fraction | 50 to 80%
CC(=O)N[C@H](CSSC[C@H](N)C(=O)O)C(=O)N[C@H](C)C(=O)N[C@H](CCCNC(=N)N)C(=O)N[C@H](CCCNC(=N)N)C(=O)N[C@H](CCCNC(=N)N)C(=O)N[C@H](C)C(=O)N[C@H](CCCNC(=N)N)C(N)=O | – | – | male human, plasma | intravenous, 5 mg, single dose, healthy volunteers | – | clearance | 135 mL/min

Excerpt of the above:
Compound | tested on | test | test system | setting | how to read | quantity | result
CC[C@H](C)[C@@H]1NC(=O)[C@H](Cc2ccccc2)NC(=O)[C@@H](NC(=O)[C@H](CCCNC(=N)N)NC(=O)[C@H](Cc2ccccc2)NC(=O)[C@H](Cc2ccccc2)NC(=O)[C@H](CCCCN)NC(=O)[C@H](CO)NC(=O)[C@H](CC(C)C)NC(=O)[C@H](CCCNC(=N)N)NC(=O)[C@H](CCSC)NC(=O)[C@H](C)N)CCCNC(=O)NCCC[C@@H](C(=O)N[C@@H](CCCNC(=N)N)C(=O)N[C@@H](CCCCN)C(=O)N[C@@H](CCCCN)C(=O)O)NC(=O)[C@H](CC(C)C)NC1=O | – | circular dichroism | 20% TFE in PBS | 200 µM, pH 7.4, 25 °C | – | helicity | 14.6%
COc1cc(NC(C)=O)c2c(c1O)-c1c(OC)c(OC)cc3c1C(C2)N(C)CC3 (stereo not shown) | – | – | rat brain homogenate | 100 µg/mL, 4 h, room temperature, short-term storage | – | remaining compound | 93.4 ± 2.7%
NCC(=O)N1CCC[C@H]1C(=O)N1C[C@H](O)C[C@H]1C(=O)O | – | potentiometric titration | – | 25 °C, MA complex, with: Fe(III) | – | log beta | 16.7
